Assay results collected from several papers.
Each line is one published result; not all experiments were run side by side. Several values in a cell are separate wells, animals, samples, runs or records.
Target: Eukaryotic translation initiation factor 2-alpha kinase 1 (EIF2AK1, Homo sapiens, UniProt Q9BQI3)

Structure (SMILES) = C=CC(=O)N1CCc2ccc(-n3c(=O)ccc4cnc5ccc(-c6cnn(C)c6)cc5c43)cc21; assay = KINOMEscan; setting = 1 µM; how to read = reference: DMSO control; quantity = remaining binding; result = 100%
Structure (SMILES) = CNC(=O)C[C@H](Cc1ccc(C#N)cc1)NC(=O)c1cc(-c2ccc(CN[C@H](C)c3ccc(C)cc3)o2)ccc1Cl; assay = enzyme activity, inhibitor; setting = 1 µM; quantity = activity vs control; result = 103%
Structure (SMILES) = COCC12C(=O)NC3C4(C(OC)CC1O)C1CC5(O)C(OC)C(O)C(OC(C)=O)(C1C5OC(=O)c1ccccc1)C3(O)C(OC)C24 (stereo not shown); assay = kinase activity, inhibitor, ProQinase kinase profiling; setting = 25 µM; how to read = reference: control; quantity = remaining activity; result = 97% and 96%
Structure (SMILES) = CCN1CCN(Cc2ccc(C(=O)Nc3ccc(C)c(NCc4cnc5[nH]ccc5c4OC)c3)cc2C(F)(F)F)CC1; assay = binding, competition with immobilised ligand; setting = 1 µM; quantity = remaining binding; result = 67%
Structure (SMILES) = COc1cc(Nc2nc(C)cc(-c3cnn4nc(OC)ccc34)n2)cc(C(F)(F)F)c1; assay = inhibitor; setting = 1 µM; how to read = reference: control; quantity = remaining activity; result = 89%
Structure (SMILES) = Cc1cnc2nc1Nc1cccc(c1)COC/C=C/COCc1cc(ccc1OCCN1CCOCC1)N2; assay = binding; setting = 0.1 µM; quantity = remaining binding; result = 97%
Structure (SMILES) = C=CC(=O)N1CCCC(n2c(=O)c3ncccc3n(Cc3ccc(Oc4ccccc4)cc3)c2=O)C1 (stereo not shown); assay = cell-free assay, competition with immobilised ligand; setting = 1 µM; quantity = remaining binding; result = 90%
Structure (SMILES) = Cc1cc(NC(=O)[C@H](O)c2cc(F)cc(F)c2)ccc1-c1cnc(N)c(C(=O)NC(C)C)c1; assay = binding, competition with immobilised ligand; setting = 1 µM; quantity = remaining binding; result = 100%
Structure (SMILES) = Nc1ncc2c(n1)-c1c([nH]c3ccc(C4=CCOCC4)cc13)CCC2; assay = binding, competition with immobilised ligand; setting = 1 µM; quantity = remaining binding; result = 100%
Structure (SMILES) = CNC(=O)C1CCN(c2cc(C)c(F)cc2NC(=O)c2ccc(-c3cc(O)ccc3C)c(C)c2)CC1; assay = binding, competition with immobilised ligand; setting = 1 µM; quantity = remaining binding; result = 99%
Structure (SMILES) = COc1cc(Nc2nccc(-c3cnn4nc(OC)ccc34)n2)cc(C(F)(F)F)c1; assay = binding, competition with immobilised ligand; setting = 1 µM; quantity = remaining binding; result = 88%
Structure (SMILES) = CN1CC[C@@H](COc2cnc(C#N)cc2-c2ccn3nc(NC(=O)C4CC4)cc3c2)C1; assay = enzyme activity, inhibitor; setting = 1 µM; quantity = inhibition; result = 7%
Structure (SMILES) = O=C(Cc1ccc(OCc2ccccc2)cc1)NC1(C(=O)O)CCN(C(=O)c2ccc(-c3cccc(Cl)c3)cc2)CC1; assay = enzyme activity, inhibitor; setting = 10 µM; quantity = activity vs control; result = 82%
Structure (SMILES) = COc1c(Cl)cccc1Nc1c(-c2ccncc2C#C[C@@]2(C)CCCN2C(=O)/C=C/CN(C)C)[nH]c2c1C(=O)NCC2; assay = binding, competition with immobilised ligand; setting = 3 µM; quantity = remaining binding; result = 84%
Structure (SMILES) = CS(=O)(=O)Nc1cccc(-c2csc3cnc(Nc4ccc(N5CCN(CCCCCOc6cccc7c6C(=O)N(C6CCC(=O)NC6=O)C7=O)CC5)cc4)nc23)c1 (stereo not shown); assay = probe labelling, inhibitor, KiNativ chemoproteomics; test system = MOLT-4; setting = 1 µM; quantity = inhibition; result = 37.8%
Structure (SMILES) = Cc1ccc(-c2c(/C=C(\C#N)C(=O)NC(C)C)n(CCCO)c3ncnc(N)c23)cc1; assay = cell-free assay, competition with immobilised ligand; setting = 1 µM; quantity = remaining binding; result = 100%
Structure (SMILES) = CC(C)=CC1OC(C)(C)C2C=C3C(=O)C(Cl)=CC(O)C3C3C(O)C4OC4C(=O)C132 (stereo not shown); assay = cell-free assay, competition with immobilised ligand; setting = 10 µM; quantity = remaining binding; result = 89%
Structure (SMILES) = CNC1C[S+]2CC[S+]3CC[S+](C1)[Ru-4]321([N]=C=S)[n]2c3ccc(OC)cc3c3c4c(c5cc(F)c[n+]1c5c32)C(=O)NC4=O (stereo not shown); assay = KinomeScan; setting = 0.1 µM; how to read = reference: untreated; quantity = remaining binding; result = 82%
Structure (SMILES) = CCn1cc(C(=O)O)c(=O)c2c(N)c(F)c(NC3CCCCC3)cc21; assay = kinase activity; setting = 0.1 µM, together with: ATP at Km; quantity = inhibition; result = -0.5%

Some of these lines once more:
Structure (SMILES) = CNC(=O)C1CCN(c2cc(C)c(F)cc2NC(=O)c2ccc(-c3cc(O)ccc3C)c(C)c2)CC1; assay = binding, competition with immobilised ligand; setting = 1 µM; quantity = remaining binding; result = 99%
Structure (SMILES) = COc1cc(Nc2nc(C)cc(-c3cnn4nc(OC)ccc34)n2)cc(C(F)(F)F)c1; assay = inhibitor; setting = 1 µM; how to read = reference: control; quantity = remaining activity; result = 89%
Structure (SMILES) = C=CC(=O)N1CCc2ccc(-n3c(=O)ccc4cnc5ccc(-c6cnn(C)c6)cc5c43)cc21; assay = KINOMEscan; setting = 1 µM; how to read = reference: DMSO control; quantity = remaining binding; result = 100%
